Measurements pooled from the literature.
Compare with care: the assays were run in different laboratories.

`C[C@@H]1OC(=O)NN=C1c1ccc(-c2ccc(F)cc2)c(C(F)(F)F)c1` — result for “patients with back pain”: 0% (patients, phase I trial; oral, 5 mg once daily, worst grade 1).
`CN1CC[C@@H](c2c(O)cc(O)c3c(=O)cc(-c4ccc(C(F)(F)F)cc4Cl)oc23)[C@@H]1CO` — result for “patients with adverse event”: 0% (measured: Sepsis; relapsed AML; oral, 100 mg, grade 3-4, intermittent dosing).
Under “patients with any TEAE”, `N[C@@H]1c2ccccc2OC12CCN(c1cnc3c(N4CCCc5ncccc54)n[nH]c3n1)CC2` is recorded as 100% (advanced solid tumour patients; oral, 75 mg once daily).
For `Nc1nc2cc(-c3ccc4ncc(C(=O)N5CCOCC5)n4c3)ccc2o1`, “patients with adverse events” read 27% (drug-related adverse events, grade ≥3; patients with advanced solid tumours; dose not given).
`CO[C@H]1C[C@@H]2CC[C@@H](C)[C@@](O)(O2)C(=O)C(=O)N2CCCC[C@H]2C(=O)O[C@H]([C@H](C)C[C@@H]2CC[C@@H](OC(=O)NCCOCCOCCOCCOCCOCCOCCOCCOCCC(=O)N3CCc4cc(Cn5nc(-c6ccc7oc(N)nc7c6)c6c(N)ncnc65)ccc4C3)[C@H](OC)C2)C[C@@H](O)[C@H](C)/C=C(\C)[C@@H](O)[C@@H](OC)C(=O)[C@H](C)C[C@H](C)/C=C/C=C/C=C/1C`: “patients with AE” 1.8% (measured: treatment-related decreased appetite; patients with advanced solid tumours; intravenous, dose not given, grade ≥3, all doses).
`[O-][S+]1CCc2nc(N3CCC(c4ncc(Cl)cn4)CC3)nc(NC3(CO)CCC3)c21` (stereo not shown): “patients with soft faeces” 10% (adverse event; idiopathic pulmonary fibrosis patients; 18 mg twice daily).
For `Cc1nc(-c2cnc(NC(C)C)n(C)c2=O)ccc1Oc1ccnc(-c2cnn(C)c2)c1`, “patients with TEAE” read 100% (TGCT patients; oral, dose not given).
For `COc1c(C)cnc(Cn2cc(C#CCCOP(=O)(O)O)c3c(Cl)nc(N)nc32)c1C`, “patients with adverse event” read 100% (patients, advanced solid tumours; dose not given, at least one AE).
Under “patients with any TEAE”, `CC(=O)c1c(C)c2cnc(Nc3ccc(C4CCN(CCS(C)(=O)=O)CC4)cn3)nc2n(C2CCCC2)c1=O` is recorded as 80% (HR+/HER2- advanced breast cancer patients; oral, 100 mg bid, grade 3/4, monotherapy arm).
For `C=CC(=O)N1CC[C@H](n2nc(C#Cc3cc(OC)cc(OC)c3)c3c(N)ncnc32)C1`, “patients with ADR” read 14% (hyperphosphataemia patients; oral, once daily, grade ≥3, all patients).
`O=C1Nc2cc3[nH]nc(-c4ccncc4)c3cc2CN1Cc1ccccc1`: “patients with ≥1 TEAE” 100% (CTCAE v4.03; advanced solid tumour patients; intravenous, 5.4 mg/kg, schedules 1/2).
`COc1nnc2ccc(N3CCC(c4ccc(OCCN5CCN(C)C(=O)[C@H]5C)cc4)CC3)nn12` — result for “patients with adverse event”: 29.4% (measured: diarrhea; patients with solid tumours or lymphoma; oral, dose not given, all grades, treatment-related).
Under “patients with TRAE any grade”, `COc1ccc(-c2c(-c3ccc(C#N)c(F)c3)nc(N3CCC(N)CC3)n(C)c2=O)cc1F` is recorded as 0% (measured: rash maculo-papular; neuroendocrine neoplasm patients; oral, 60 mg, dose expansion).
`C=CCNc1c(O)cc2c(O)c1C[C@@H](C)C[C@H](OC)[C@H](O)[C@@H](C)/C=C(\C)[C@H](OC(N)=O)[C@@H](OC)/C=C\C=C(/C)C(=O)N2`: “patients with ALP increase” 3% (unresectable or metastatic sarcoma; intravenous, 400 mg/m^2, grade 3-4 lab change).
`CCNCCCNC/C=C\CNCCCNCC`: “patients with treatment-related TEAE” 34.8% (advanced refractory solid tumour patients; intravenous, dose not given, fatigue).
`COc1cc2c(Oc3ccc4[nH]c(C)cc4c3F)ccnc2cc1OCC1(N)CC1`: “patients with grade 3 Triglyceride elevation” 0% (paediatric refractory sarcoma patients; dose not given).

A few entries again:
`CO[C@H]1C[C@@H]2CC[C@@H](C)[C@@](O)(O2)C(=O)C(=O)N2CCCC[C@H]2C(=O)O[C@H]([C@H](C)C[C@@H]2CC[C@@H](OC(=O)NCCOCCOCCOCCOCCOCCOCCOCCOCCC(=O)N3CCc4cc(Cn5nc(-c6ccc7oc(N)nc7c6)c6c(N)ncnc65)ccc4C3)[C@H](OC)C2)C[C@@H](O)[C@H](C)/C=C(\C)[C@@H](O)[C@@H](OC)C(=O)[C@H](C)C[C@H](C)/C=C/C=C/C=C/1C`: “patients with AE” 1.8% (measured: treatment-related decreased appetite; patients with advanced solid tumours; intravenous, dose not given, grade ≥3, all doses).
Under “patients with any TEAE”, `CC(=O)c1c(C)c2cnc(Nc3ccc(C4CCN(CCS(C)(=O)=O)CC4)cn3)nc2n(C2CCCC2)c1=O` is recorded as 80% (HR+/HER2- advanced breast cancer patients; oral, 100 mg bid, grade 3/4, monotherapy arm).
